Published values collected from several papers.
Numbered parts are unrelated; each lists some results of a single study.
UniProt P06241, sequence (whole entry, looked up): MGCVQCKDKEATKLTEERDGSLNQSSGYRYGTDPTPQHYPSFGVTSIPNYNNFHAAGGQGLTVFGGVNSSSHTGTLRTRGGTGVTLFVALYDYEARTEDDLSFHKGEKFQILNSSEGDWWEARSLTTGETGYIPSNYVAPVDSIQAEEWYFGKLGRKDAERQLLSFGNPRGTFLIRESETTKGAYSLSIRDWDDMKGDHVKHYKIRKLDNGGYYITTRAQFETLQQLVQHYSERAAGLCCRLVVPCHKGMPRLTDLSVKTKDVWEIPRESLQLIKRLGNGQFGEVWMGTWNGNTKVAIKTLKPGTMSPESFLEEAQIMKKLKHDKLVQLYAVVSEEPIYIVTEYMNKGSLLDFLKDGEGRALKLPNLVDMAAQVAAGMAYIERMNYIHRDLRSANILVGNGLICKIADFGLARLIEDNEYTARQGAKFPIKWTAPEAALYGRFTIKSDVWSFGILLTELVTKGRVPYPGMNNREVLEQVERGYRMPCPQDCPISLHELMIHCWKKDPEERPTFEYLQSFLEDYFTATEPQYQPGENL
UniProt Q8TDX7, sequence (whole entry, looked up): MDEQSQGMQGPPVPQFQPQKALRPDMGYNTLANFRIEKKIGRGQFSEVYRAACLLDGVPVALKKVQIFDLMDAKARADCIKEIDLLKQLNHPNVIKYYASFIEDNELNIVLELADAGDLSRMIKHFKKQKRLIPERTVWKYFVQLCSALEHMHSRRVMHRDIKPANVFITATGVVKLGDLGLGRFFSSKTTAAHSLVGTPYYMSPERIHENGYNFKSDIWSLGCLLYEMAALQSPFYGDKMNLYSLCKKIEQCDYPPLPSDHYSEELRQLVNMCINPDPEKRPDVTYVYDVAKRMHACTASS
UniProt O75385, sequence (whole entry, looked up): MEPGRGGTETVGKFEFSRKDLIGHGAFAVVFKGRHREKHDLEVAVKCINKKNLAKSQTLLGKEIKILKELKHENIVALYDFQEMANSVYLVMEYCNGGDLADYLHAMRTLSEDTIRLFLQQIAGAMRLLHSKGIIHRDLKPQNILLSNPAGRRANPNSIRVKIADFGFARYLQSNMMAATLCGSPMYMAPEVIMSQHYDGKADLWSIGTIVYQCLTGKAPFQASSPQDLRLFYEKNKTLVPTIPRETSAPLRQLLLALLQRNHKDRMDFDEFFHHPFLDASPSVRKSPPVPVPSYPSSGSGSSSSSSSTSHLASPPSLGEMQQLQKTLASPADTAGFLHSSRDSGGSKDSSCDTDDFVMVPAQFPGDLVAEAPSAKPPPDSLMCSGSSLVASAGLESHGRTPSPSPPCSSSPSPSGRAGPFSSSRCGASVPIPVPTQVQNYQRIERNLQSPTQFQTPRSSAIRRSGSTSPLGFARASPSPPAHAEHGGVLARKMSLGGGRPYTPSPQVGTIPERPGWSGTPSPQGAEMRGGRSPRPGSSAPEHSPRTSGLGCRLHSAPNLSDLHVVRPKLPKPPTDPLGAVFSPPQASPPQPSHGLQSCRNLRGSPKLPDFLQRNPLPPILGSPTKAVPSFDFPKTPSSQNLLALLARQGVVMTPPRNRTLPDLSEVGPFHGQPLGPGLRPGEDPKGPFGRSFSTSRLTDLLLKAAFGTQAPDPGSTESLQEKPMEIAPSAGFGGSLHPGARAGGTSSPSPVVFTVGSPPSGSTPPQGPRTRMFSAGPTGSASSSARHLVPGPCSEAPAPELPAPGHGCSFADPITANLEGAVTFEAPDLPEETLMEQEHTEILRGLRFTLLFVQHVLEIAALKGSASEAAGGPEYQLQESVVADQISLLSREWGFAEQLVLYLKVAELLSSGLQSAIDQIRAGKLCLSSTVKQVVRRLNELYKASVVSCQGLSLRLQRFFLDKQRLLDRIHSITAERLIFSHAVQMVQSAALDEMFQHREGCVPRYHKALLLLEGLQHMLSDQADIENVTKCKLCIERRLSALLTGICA
UniProt P49759, sequence (whole entry, looked up): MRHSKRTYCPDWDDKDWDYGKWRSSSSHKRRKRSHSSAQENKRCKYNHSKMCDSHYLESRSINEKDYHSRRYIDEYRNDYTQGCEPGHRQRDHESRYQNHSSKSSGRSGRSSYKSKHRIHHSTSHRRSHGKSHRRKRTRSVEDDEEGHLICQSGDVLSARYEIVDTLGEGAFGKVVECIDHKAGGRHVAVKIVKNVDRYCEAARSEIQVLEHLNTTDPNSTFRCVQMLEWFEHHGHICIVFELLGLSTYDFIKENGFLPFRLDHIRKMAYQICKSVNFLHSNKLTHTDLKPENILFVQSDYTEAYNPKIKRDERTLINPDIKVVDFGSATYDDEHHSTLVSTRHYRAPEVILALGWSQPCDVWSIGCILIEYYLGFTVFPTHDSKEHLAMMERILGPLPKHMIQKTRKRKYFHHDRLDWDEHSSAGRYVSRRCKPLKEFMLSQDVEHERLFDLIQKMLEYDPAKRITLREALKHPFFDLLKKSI

Sample 1 — effect on: enzyme activity; action: inhibitor; tested at: 0.5 µM; reference: control
Target: Serine/threonine-protein kinase MRCK alpha (CDC42BPA, Homo sapiens, UniProt Q5VT25)
UniProt Q5VT25, sequence (whole entry, looked up): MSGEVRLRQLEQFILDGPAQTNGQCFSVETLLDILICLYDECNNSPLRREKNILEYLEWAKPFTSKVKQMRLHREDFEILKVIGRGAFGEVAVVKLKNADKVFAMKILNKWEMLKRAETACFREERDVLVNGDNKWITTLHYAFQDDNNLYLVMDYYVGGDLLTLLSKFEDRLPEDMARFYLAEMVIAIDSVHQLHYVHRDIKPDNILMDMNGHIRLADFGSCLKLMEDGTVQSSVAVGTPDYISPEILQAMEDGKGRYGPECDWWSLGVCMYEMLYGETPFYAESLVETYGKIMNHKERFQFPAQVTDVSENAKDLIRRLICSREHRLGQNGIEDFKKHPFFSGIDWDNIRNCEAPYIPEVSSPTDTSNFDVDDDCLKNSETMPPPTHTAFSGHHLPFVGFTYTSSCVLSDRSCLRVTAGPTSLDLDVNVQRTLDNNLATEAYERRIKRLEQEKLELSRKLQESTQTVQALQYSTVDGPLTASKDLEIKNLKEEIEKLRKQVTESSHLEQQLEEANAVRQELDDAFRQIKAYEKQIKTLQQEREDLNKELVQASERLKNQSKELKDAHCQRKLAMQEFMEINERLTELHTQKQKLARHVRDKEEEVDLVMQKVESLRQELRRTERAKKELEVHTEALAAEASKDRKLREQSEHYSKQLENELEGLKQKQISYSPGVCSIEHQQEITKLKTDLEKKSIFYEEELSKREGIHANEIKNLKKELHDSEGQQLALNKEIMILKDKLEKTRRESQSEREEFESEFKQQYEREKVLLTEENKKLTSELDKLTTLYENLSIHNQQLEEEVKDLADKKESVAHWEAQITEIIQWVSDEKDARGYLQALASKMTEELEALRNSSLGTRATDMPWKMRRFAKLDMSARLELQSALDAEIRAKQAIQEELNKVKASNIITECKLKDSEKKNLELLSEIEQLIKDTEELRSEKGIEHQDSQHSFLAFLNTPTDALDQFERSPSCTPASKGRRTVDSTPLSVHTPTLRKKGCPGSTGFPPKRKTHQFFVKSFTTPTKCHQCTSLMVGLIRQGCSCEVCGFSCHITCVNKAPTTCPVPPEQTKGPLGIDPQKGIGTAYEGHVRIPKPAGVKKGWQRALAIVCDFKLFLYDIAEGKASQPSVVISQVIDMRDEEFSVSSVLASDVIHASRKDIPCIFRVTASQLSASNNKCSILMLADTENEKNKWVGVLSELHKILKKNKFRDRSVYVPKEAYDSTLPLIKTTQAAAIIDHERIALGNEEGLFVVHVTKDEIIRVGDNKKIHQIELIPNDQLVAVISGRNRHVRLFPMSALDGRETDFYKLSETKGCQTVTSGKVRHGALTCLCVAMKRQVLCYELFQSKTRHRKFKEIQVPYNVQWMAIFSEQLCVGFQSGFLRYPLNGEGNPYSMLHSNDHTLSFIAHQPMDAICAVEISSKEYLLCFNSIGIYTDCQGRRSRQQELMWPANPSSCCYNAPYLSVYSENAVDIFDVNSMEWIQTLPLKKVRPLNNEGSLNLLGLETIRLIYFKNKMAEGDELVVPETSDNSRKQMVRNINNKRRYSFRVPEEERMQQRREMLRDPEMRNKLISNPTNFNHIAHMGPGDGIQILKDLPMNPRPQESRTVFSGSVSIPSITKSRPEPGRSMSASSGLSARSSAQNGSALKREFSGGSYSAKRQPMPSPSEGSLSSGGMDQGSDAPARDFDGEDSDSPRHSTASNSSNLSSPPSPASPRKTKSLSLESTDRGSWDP
Structure (SMILES) | remaining activity
CN1CCN(c2ccc3nc(-c4c(N)c5c(F)cccc5[nH]c4=O)[nH]c3c2)CC1 | 97%
Cc1cc(Nc2cc(N3CCN(C)CC3)nc(Sc3ccc(NC(=O)C4CC4)cc3)n2)[nH]n1 | 75.3%
N#Cc1cnc2cnc(NCc3cccnc3)cc2c1Nc1ccc(F)c(Cl)c1 | 80%
c1ccc2c(-c3ccncc3)c[nH]c2c1 | 99.9%

Sample 2 — method: EMSA with sequencing; molecule type: double-stranded DNA, one strand shown; matrix: in vitro; tested at: 10 and 20 nM; reference: negative control set to 0; reading: higher = stronger binding
Target: Hepatocyte nuclear factor 3-alpha (Foxa1, Mus musculus, UniProt P35582, residues 1-468, full length assumed)
Setting: whole designed probe, mean of two concentrations, ends assumed
Construct (chain): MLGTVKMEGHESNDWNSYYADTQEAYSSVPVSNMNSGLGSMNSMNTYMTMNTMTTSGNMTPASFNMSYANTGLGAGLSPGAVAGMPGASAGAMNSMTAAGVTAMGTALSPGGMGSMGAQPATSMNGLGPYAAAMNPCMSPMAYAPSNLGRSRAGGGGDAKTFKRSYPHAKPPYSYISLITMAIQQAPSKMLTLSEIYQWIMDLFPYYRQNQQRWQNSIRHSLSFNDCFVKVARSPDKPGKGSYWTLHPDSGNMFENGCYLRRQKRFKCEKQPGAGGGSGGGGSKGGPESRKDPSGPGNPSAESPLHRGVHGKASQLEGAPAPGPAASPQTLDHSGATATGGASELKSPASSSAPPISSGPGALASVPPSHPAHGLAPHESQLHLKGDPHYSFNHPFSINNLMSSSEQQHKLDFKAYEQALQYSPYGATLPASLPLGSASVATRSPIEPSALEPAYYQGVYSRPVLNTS
Oligonucleotide | normalised bound fraction [ratio]
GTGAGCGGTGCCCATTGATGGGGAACTTCCGTCTGTGGTCTATAGCGTTGCCTCTTGCCTTTTTACAAGGAAGAAAAACTTGTATAAACATCATGATTCATGGGTTTTAATCACTTTAGGTAATCTGTGCTGCCAGATGATCCTGGTTTGCAGATTCAGGACATGAAATCCTTCAACTGACACTGAGATTTGTTTAGAGTTGATGGTGGGAGAAGAGAGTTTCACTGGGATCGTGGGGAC | 0.0731
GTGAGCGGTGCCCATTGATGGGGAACATCTTCCCCCTCTTCCTTGCCCCACCAGCTCACCTTCCCGGGTTATTTGCAGATAGGAAAATAAATAAAGCCGGCATTCGTTAACCCTCTTCTGGCGCAAACTGCTGTTTGCTCTGGATGAATCATGGTCCTTTGGCGCCGCAAGCGTCCGGGAGAGCAAAGCACCGTGTCAGGGCCATGATCCGGGGTGGCCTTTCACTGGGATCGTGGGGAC | 0.329
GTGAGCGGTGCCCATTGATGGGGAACGAGCTGCTTGCAATTGAGTTGTATGTATGCTTCCACTTAATACGTCCTGCCGAGCCTGTAAGCCAACAGGAATCTGCCCCACTTCCGGCTCTGTGTTTACCTACTCTCTTTTTATGTCTTATTCCCAGAATGACTGGGGACCAAAGGAATCCTTTGCAGGAGTTTTCTCCAGACAGACAGTTCCACATGCTAGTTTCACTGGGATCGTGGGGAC | 0.241
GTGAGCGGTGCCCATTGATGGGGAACATGTGGCTTTAGCTGTGTCCCAAAGATTTTGGTATGTGTTTTCTCTGTTTTCACTTATTTCAAAGAACTTTTAAATTTCTGCCTTGATATCATAGATTACTCAAAAGTTGTTGAGGAGCCAGTTGTTTAATTTCTATGCATTTCTGTGGTTTTGAGAGATCTTCTTGGTATTGTTTTCTGTTTTTATTCTATTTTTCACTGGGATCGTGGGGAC | 0.0442
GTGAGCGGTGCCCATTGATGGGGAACTATTGGCTGCTTTTCAGTAACTTGGAAGCCTTAGGAGACATTCAGAGTTTGGCATCAAGTTGCATTAATCATATTAAACTTTAAAATCCGTGCTTGTTTACTCAGCAATGCATTTTAGTCATGTCGGTGTATCTTTAACACTGCTTCAAGCAACAATACAAGAACCCAACCTCTGGTCTTGCTGCTTTATTAATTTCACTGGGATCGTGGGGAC | 0.394
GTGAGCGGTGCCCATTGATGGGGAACATTTGGGACATTTGAAACTGAAATAACTGATCACTATAATTTTTCTTTCAATGTTAATCTAGCATCATTTAGCATGGAGAAGCCATCTATCCTGTTTACTTTGACACTGGCCAAAGTTAGAGCCAGGACAAAAATAAGATAATTGTGTTTTTTTTCTCTTCAAAAAATATATATTCCTTCTGTTAGTCTCCAATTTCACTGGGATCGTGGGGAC | 0.179
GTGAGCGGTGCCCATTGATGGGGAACGAAACTGCTAATGATGAACCATTCTGAATGCAAGCTTCCATTTACTTTACAGTACTGGATTTCTCTATGGGCCTACAGGAATGTATGGCAAAGTAAATAAGGAAACAGATAAGTGAAATAGGTCATAAGGATCTGTAATTAATTTCTCAATTTCTTCATTGTATCTGTAATCAATTTCTCAATTTCTTCATTGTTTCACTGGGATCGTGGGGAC | 0.39
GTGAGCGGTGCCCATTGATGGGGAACATCTTCCCCCTCTTCCTTGCCCCACCAGCTCACCTTCCCGGGTTATTTGCAGATAGGAAAATAAATAAAGCCGGCATTCGTTAACCCTCTTCTGGCGCAAACTGCTGTTTGCTCTGGATGAATCATGGTTATGGCGTCCCGCCAGGCTCCGGGAGAGCAAAGCACCGTGTCAGGGCCATGATCCGGGGTGGCCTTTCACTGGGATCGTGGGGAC | 0.356

Sample 3 — method: RNA Bind-n-Seq; molecule type: RNA; matrix: in vitro; tested at: 365 nM; reference: no-protein control; reading: higher = stronger binding
Target: RNA binding protein fox-1 homolog 2, RRM domain, GST-SBP tag (RBFOX2, Homo sapiens, UniProt O43251-10, residues 100-194)
Setting: natural RNA segment, single round, ends assumed
Construct (chain): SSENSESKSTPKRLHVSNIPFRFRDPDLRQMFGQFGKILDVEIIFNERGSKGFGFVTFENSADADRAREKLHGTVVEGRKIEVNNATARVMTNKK
Oligonucleotide | RBNS enrichment (R)
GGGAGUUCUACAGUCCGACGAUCACACUCAGUGAGACUGGGCCCUGGCCUUGUAAGCUCUGUGAUGUCAGCCUGCCCAUGGCACCCCAAAAGCAAGAUCCUGGAGAUCACAUUUGAUCCUACCAAAACCACUGUGGAAUUCUCGGGUGCCAA | 0.342
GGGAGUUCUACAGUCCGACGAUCAGAAAACCCGUUUAGGGAGAAGAAGUUUUUCUGUGCCAUCCUUUAAGUCUUUGAGAGGGGCCUGAAGAGCCUCCGGGCUCCUGGGACAUUGAUGUAGAGUUUUUAGUGAAUGGAAUUCUCGGGUGCCAA | 0.648
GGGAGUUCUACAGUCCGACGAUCCAGUCACCCCACAAGCCUACCAUCACGUCCCCUUCAGAGCUCACCUUGUAUCCUUAAUCCUCAGUAACAGAAUUAGUCACACAGGGGGGAACUGCCAGCAGGGUUGCUUAUGGAAUUCUCGGGUGCCAA | 0.357
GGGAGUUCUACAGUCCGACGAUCUGAAGCAGGUCACCAUGCUUGCAAAUUAAGUUUCAGCAGCUCUACCUCCUGGCAGAAGGACUGAGUCCAAAUCGCAUGCAGUGCACGUUGAAGUUUUCAGAAGCAUGGGCUGGAAUUCUCGGGUGCCAA | 5.96
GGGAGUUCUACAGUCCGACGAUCAUUAGUUUAAAGGUAAAUAAAGUCAGCUGAAUCUACAUGUCUCUUGUUUUAUUUCUCUCUAAACUUGAAAACAGUAAAUCUGCAGAUACUGUGAGGCACAAAUUAUACUGUGGAAUUCUCGGGUGCCAA | 0.521
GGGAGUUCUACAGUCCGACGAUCUUGAAUCUGUAAAUUACCUUGGGCAGUAUGGCCAUUUUCACAAUAUUGAUUCUUCCUACCCAAGAGCAUGGAAUGUUCUUCCAUUUGUUUGUAUCCUCUUUUAUUUCCUUUGGAAUUCUCGGGUGCCAA | 0.93
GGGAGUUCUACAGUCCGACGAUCGGAGAAAUCCCAAAGCAGAUUCCUUUGAUCGGGUUUCUGUUGGAGAUGGGGCUUCCCUUAGGAGCCAUAUUCAACUACAGCCUUCUAAAACCUGUGCCCUCAGCCACUUCUGGAAUUCUCGGGUGCCAA | 0.287
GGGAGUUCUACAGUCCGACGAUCAGCUAGAAUCGAGCCAGUAAACAGUCUAAGCCAGAAAAAUAAUUUUCAAAUGCUUUACCUGUAUUUUCAUUCCAGUACUUUUUAUGAUUUUUUAAAUAAAAAUUGUUUUCUGGAAUUCUCGGGUGCCAA | 0.867

Sample 4 — effect on: cell-free assay; method: competition with immobilised ligand; tested at: 1 µM
Structure (SMILES): C[C@H](c1cccc(C#N)c1)n1cc(Cl)cc(C(N)=O)c1=N
target | remaining binding
FLT3 (Homo sapiens, UniProt P36888, F691L/ITD) | 82%
NTRK1 (Homo sapiens, UniProt P04629) | 100%
NEK7 (Homo sapiens, UniProt Q8TDX7) | 97%
CLK1 (Homo sapiens, UniProt P49759) | 100%
TNK1 (Homo sapiens, UniProt Q13470) | 77%
FYN (Homo sapiens, UniProt P06241) | 42%
ULK1 (Homo sapiens, UniProt O75385) | 78%
Ribosomal protein S6 kinase alpha-4, N-terminal kinase domain (RPS6KA4, Homo sapiens, UniProt O75676) | 100%

Excerpt of the above (sample 2):
Oligonucleotide | normalised bound fraction [ratio]
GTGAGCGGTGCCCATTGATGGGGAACGAGCTGCTTGCAATTGAGTTGTATGTATGCTTCCACTTAATACGTCCTGCCGAGCCTGTAAGCCAACAGGAATCTGCCCCACTTCCGGCTCTGTGTTTACCTACTCTCTTTTTATGTCTTATTCCCAGAATGACTGGGGACCAAAGGAATCCTTTGCAGGAGTTTTCTCCAGACAGACAGTTCCACATGCTAGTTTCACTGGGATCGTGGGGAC | 0.241
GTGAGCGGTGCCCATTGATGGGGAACATGTGGCTTTAGCTGTGTCCCAAAGATTTTGGTATGTGTTTTCTCTGTTTTCACTTATTTCAAAGAACTTTTAAATTTCTGCCTTGATATCATAGATTACTCAAAAGTTGTTGAGGAGCCAGTTGTTTAATTTCTATGCATTTCTGTGGTTTTGAGAGATCTTCTTGGTATTGTTTTCTGTTTTTATTCTATTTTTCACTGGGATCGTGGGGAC | 0.0442
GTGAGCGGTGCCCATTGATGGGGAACTATTGGCTGCTTTTCAGTAACTTGGAAGCCTTAGGAGACATTCAGAGTTTGGCATCAAGTTGCATTAATCATATTAAACTTTAAAATCCGTGCTTGTTTACTCAGCAATGCATTTTAGTCATGTCGGTGTATCTTTAACACTGCTTCAAGCAACAATACAAGAACCCAACCTCTGGTCTTGCTGCTTTATTAATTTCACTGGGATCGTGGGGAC | 0.394
